Published values collected from several papers.
Compare with care: the assays were run in different laboratories. ± gives the spread as reported.

Structure (SMILES) | assay | test system | setting | tissue uptake
CCCC[C@H](NC(=O)CN1CCC(NC(=O)CN2CCN(CC(=O)O)CCN(CC(=O)O)CCN(CC(=O)O)CC2)CC1)C(=O)N[C@H]1CC(=O)NCCCC[C@@H](C(N)=O)NC(=O)[C@H](Cc2c[nH]c3ccccc23)NC(=O)[C@H](CCCNC(=N)N)NC(=O)[C@@H](Cc2ccccc2)NC(=O)[C@H](Cc2c[nH]cn2)NC1=O [gallium-68 labelled] |  | C57BL/6J mice male B16-F10 tumour, stomach | 2 h post injection, unblocked | 0.8 ± 0.2 %ID/g
N=C(N)NCCC[C@H](NC(=O)CON=C[C@H](F)[C@@H](O)[C@H](O)[C@H](O)CO)C(=O)NCC(=O)N[C@@H](CC(=O)O)C(=O)O [fluorine-18 labelled] |  | nude mice U-87 MG tumour, intestine | intravenous, 0.5 h | 0.32 ± 0.03 %ID/g
CCCC[C@H](NC(=O)CNC(=O)CNC(=O)CN1CCN(CC(=O)O)CCN(CC(=O)O)CCN(CC(=O)O)CC1)C(=O)N[C@H]1CC(=O)NCCCC[C@@H](C(N)=O)NC(=O)[C@H](Cc2c[nH]c3ccccc23)NC(=O)[C@H](CCCNC(=N)N)NC(=O)[C@@H](Cc2ccccc2)NC(=O)[C@H](Cc2c[nH]cn2)NC1=O [gallium-67 labelled] |  | female C57 mice, B16/F1 melanoma, muscle | intravenous, 0.037 MBq, 0.5 h | 0.75 ± 0.2 %ID/g
O=C(NCC1OC2CCC=CCCC2O1)c1ccc([18F])nc1 (stereo not drawn) |  | female BALB/c nude mice, kidneys | intravenous, 10 min | 14.5 ± 3.2 %ID/g
CN1C(=O)[C@@H](Cc2ccc(O)c(I)c2)NC(=O)CNC(=O)[C@H](Cc2ccc3ccccc3c2)NC(=O)[C@H](CCCNC(=N)N)NC(=O)[C@H]1CCCNC(=O)c1ccc(CNC(=O)CN2CCN(CC(=O)O)CCN(CC(=O)O)CCN(CC(=O)O)CC2)cc1 [lutetium-177 labelled] | item: 177Lu radioactivity | female CB-17 SCID mice, Daudi xenograft, stomach | intravenous, 0.16 nmol per mouse, 96 h | 0.1 ± 0.01 %ID/g
N=C(N)NCCC[C@@H]1NC(=O)[C@H](CCCCNC(=O)CON=C[C@H](F)[C@@H](O)[C@H](O)[C@H](O)CO)NC(=O)[C@@H](Cc2ccc(O)cc2)NC(=O)[C@H](CC(=O)O)NC(=O)CNC1=O [fluorine-18 labelled] |  | nude mice U-87 MG tumour, liver | intravenous, 2 h | 0.43 ± 0.4 %ID/g
CCCC[C@@H]1NC(=O)[C@@H](NC(=O)[C@H](CCC(=O)O)NC(=O)CNC(=O)CN2CCN(CC(=O)O)CCN(CC(=O)O)CCN(CC(=O)O)CC2)CCCCNC(=O)C[C@@H](C(N)=O)NC(=O)[C@H](C(C)C)NC(=O)[C@@H]2CCCN2C(=O)[C@H](CCCNC(=N)N)NC(=O)CNC(=O)[C@H](Cc2c[nH]c3ccccc23)NC(=O)[C@H](CCCNC(=N)N)NC(=O)[C@@H](Cc2ccccc2)NC(=O)[C@H](Cc2c[nH]cn2)NC(=O)[C@H](CCC(=O)O)NC1=O [gallium-67 labelled] |  | C57 mice with B16/F1 melanoma, blood | intravenous, 2 h | 0.05 ± 0.04 %ID/g
O=C([O-])c1cccc(CN(CCN(Cc2cn(Cc3ccccc3)nn2)Cc2cccc(C(=O)[O-])n2)Cc2cn(Cc3ccccc3)nn2)n1.[64Cu+2] |  | healthy athymic nude mice, skin | intravenous, 1 h | 1.77 %ID/g
CCCC[C@H](NC(=O)CNC(=O)CNC(=O)CN1CCN(CC(=O)O)CCN(CC(=O)O)CC1)C(=O)N[C@H]1CC(=O)NCCCC[C@@H](C(N)=O)NC(=O)[C@H](Cc2c[nH]c3ccccc23)NC(=O)[C@H](CCCNC(=N)N)NC(=O)[C@@H](Cc2ccccc2)NC(=O)[C@H](Cc2c[nH]cn2)NC1=O [gallium-67 labelled] |  | female C57 mice, B16/F1 melanoma, kidneys | intravenous, 0.037 MBq, 2 h | 8.34 ± 3.25 %ID/g
CC(C)[C@H](NC(=O)[C@@H]1CCCN1C(=O)[C@H](CCCNC(=N)N)NC(=O)[C@H](CS)NC(=O)[C@H](Cc1c[nH]c2ccccc12)NC(=O)[C@H](CCCNC(=N)N)NC(=O)[C@@H](Cc1ccccc1)NC(=O)[C@H](Cc1c[nH]cn1)NC(=O)[C@H](CCC(=O)O)NC(=O)[C@H](CS)NC(=O)[C@H](CS)NC(=O)CNC(=O)[C@@H]1CC(=O)N[C@@H](CCCNC(=N)N)C(=O)NCC(=O)N[C@@H](CC(=O)O)C(=O)N[C@H](Cc2ccc(O)cc2)C(=O)N1)C(N)=O [technetium-99m labelled] |  | C57 mice B16/F1 melanoma female, liver | iv, 2 h, added: NDP-MSH 10 µg co-injected | 2.55 ± 1.38 %ID/g
O=C([O-])CN1CCN(CC(=O)[O-])CCN(CC(=O)[O-])CCN(CC(=O)[O-])CC1.[64Cu+2] |  | healthy athymic nude mice, large intestine | intravenous, 24 h | 0.35 %ID/g
O=C([O-])CN1CCN(CC(=O)[O-])CCN(CC(=O)NCCc2ccc3c(c2)C2C=CCC2C(c2cc4c(cc2Br)OCO4)N3)CCN(CC(=O)[O-])CC1.[111In+3] (stereo not drawn) |  | mice with Hec50 tumour xenograft, pituitary | 4 h | 0.01 %ID/g

For quick reference, copied from above:
Structure (SMILES) | assay | test system | setting | tissue uptake
O=C([O-])c1cccc(CN(CCN(Cc2cn(Cc3ccccc3)nn2)Cc2cccc(C(=O)[O-])n2)Cc2cn(Cc3ccccc3)nn2)n1.[64Cu+2] |  | healthy athymic nude mice, skin | intravenous, 1 h | 1.77 %ID/g
